Measurements pooled from the literature.
Each numbered part is a random draw from the data of one study; scales do not carry over between parts. Positions count from the first letter of the parent shown.

Series 1 — target: CCNB2, cyclin fold, Cln2 fusion (human); method: yeast growth competition, sequencing; medium: yeast; setting: weak parent motif; baseline: not given; reading: higher = stronger binding; quantity: normalised enrichment score
Starting sequence: E2F1 docking peptide (human); PPVKRRLDLETDH
VPVKRRLDLETDH [P1V]: -0.0801
PPVKRRLDLETMH [D12M]: 0.403
PPVKRRLDLELDH [T11L]: 0.946
PPVKRRLDLETDG [H13G]: 0.422
PPVKRRLDLETPH [D12P]: 0.976

Series 2 — method: protein binding microarray; form: double-stranded DNA, one strand shown; medium: in vitro; concentration: not given; baseline: not given; reading: higher = stronger binding; quantity: E-score
Target: Histone acetyltransferase KAT6A, winged helix 1, GST fusion (KAT6A, Homo sapiens, UniProt Q92794, residues 1-85)
Setting: 8-mer, flanks averaged, mean of 2 arrays, mostly near background
Construct (chain): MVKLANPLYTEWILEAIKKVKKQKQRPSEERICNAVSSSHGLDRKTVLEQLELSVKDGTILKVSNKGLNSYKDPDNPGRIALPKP
TAAACGTA: -0.0381
ACCATCGT: -0.115
GATCGGAC: 0.038
GCCACACA: -0.202
CGGTCACG: 0.305

Series 3 — method: DHFR PCA, deep sequencing; medium: yeast; with: (+)-ABA 0.0091 µM; baseline: wild-type fitted maximum; reading: higher = stronger binding; quantity: relative binding score
Target: ABI1, truncated, D143A, DHFR fusion (Arabidopsis thaliana)
Setting: methotrexate growth selection, single substitutions
Starting sequence: PYL1, truncated, DHFR fusion (Arabidopsis thaliana); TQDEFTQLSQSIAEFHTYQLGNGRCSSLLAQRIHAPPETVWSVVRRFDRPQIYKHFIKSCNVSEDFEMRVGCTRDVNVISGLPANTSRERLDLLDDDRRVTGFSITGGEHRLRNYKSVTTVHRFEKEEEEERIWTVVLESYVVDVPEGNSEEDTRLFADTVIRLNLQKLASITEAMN
G23F: 7.11%
S140Q: -3.67%
L82W: 52.7%

Single results of other studies
PhoQ, residues 284 288 289 292 302 303 QWGLFV  fold induction (PhoP, residues 12 14 15 18 19 IQSYL (Escherichia coli, UniProt P23836); Sort-seq, item: YFP reporter; E. coli; PhoQ-PhoP variant library, with: 10 µM Mg2+; baseline: high Mg2+ state, higher = stronger signaling): 3.92

Some of these lines once more (series 1):
VPVKRRLDLETDH [P1V]: -0.0801
PPVKRRLDLETMH [D12M]: 0.403
